Experimental data of several laboratories.
Protocols differ between the studies behind these lines. Numbers after ± are the reported error.
Sequence of UniProt P49840 (whole entry, looked up): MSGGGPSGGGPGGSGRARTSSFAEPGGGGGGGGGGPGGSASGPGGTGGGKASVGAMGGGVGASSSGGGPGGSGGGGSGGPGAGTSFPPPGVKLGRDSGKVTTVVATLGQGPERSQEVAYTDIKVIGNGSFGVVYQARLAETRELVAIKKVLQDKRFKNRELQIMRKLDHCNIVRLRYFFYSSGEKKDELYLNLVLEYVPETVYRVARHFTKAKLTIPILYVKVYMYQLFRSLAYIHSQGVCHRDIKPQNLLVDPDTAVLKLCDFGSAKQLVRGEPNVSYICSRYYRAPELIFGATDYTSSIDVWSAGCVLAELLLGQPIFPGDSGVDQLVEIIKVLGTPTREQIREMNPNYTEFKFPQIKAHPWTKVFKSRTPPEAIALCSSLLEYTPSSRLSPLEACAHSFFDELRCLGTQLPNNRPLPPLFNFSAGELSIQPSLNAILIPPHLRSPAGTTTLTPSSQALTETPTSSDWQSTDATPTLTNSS
Sequence of UniProt Q9Y2K6 (whole entry, looked up): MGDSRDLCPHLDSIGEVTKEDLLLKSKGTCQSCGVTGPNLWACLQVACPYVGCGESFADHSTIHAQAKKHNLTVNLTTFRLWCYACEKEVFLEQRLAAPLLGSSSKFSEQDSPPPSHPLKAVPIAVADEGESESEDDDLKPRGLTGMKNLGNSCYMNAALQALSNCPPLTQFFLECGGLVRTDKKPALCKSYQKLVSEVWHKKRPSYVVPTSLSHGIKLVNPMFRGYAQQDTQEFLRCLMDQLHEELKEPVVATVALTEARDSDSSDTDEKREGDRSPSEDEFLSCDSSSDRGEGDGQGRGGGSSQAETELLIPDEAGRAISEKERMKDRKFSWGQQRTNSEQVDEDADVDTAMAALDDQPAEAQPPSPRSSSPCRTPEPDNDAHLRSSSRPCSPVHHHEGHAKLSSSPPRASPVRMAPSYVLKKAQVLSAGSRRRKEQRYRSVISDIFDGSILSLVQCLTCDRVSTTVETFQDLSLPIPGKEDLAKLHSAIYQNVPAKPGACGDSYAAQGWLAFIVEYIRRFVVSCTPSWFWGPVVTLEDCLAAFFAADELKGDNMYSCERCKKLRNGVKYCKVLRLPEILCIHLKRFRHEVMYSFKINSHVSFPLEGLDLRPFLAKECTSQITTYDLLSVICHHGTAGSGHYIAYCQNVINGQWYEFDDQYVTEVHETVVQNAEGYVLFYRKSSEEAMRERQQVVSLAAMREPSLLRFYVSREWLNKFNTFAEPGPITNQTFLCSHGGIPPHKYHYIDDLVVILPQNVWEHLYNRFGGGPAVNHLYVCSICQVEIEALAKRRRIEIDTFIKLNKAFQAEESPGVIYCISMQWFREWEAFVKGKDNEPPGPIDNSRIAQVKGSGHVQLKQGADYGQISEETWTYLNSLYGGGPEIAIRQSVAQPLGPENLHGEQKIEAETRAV

`O=C(/C=C/c1ccc(O)c(O)c1)c1ccc(O)cc1O` — result for inhibition: “inactive” (HIF-1, mouse; reporter gene; NIH3T3, HIF-1 luciferase transfected; concentration not given, added: cobalt chloride).
For `N=C(NCCCSC[C@H]1O[C@@H](n2cnc3c(NCCCc4ccccc4)ncnc32)[C@H](O)[C@@H]1O)NCCCc1ccccc1`, the inhibition was < 10% (CamA DNA adenine methyltransferase (Clostridioides difficile); enzyme activity, inhibitor, MTase-Glo luminescence (SAH); 10 µM, 3 min, pH 7.5, 22 °C, added: SAM 40 µM).
`CCCCCCCCCCCCC/C=C/[C@@H](O)[C@@H](N)COP(=O)(O)O`: “z-scored log2 fold change” -0.184 (binding, equilibrium dialysis LC-MS; 5 µM, thermostabilized A2AR-BRIL construct; baseline: no-protein control, direction not given).
`C#CCNC(=N)NCCCSC[C@H]1O[C@@H](n2cnc3c(NCCCc4ccccc4)ncnc32)[C@H](O)[C@@H]1O` has an inhibition of < 10% (CamA DNA adenine methyltransferase (Clostridioides difficile); enzyme activity, inhibitor, MTase-Glo luminescence (SAH); 10 µM, 3 min, pH 7.5, 22 °C, added: SAM 40 µM).
`CN1CCN(c2ccc(C(=O)Nc3n[nH]c4ccc(Cc5cc(F)cc(F)c5)cc34)c(NC3CCOCC3)c2)CC1` has an inhibition of 95.2% (NLRP3 inflammasome (mouse); mouse BMDM; 10 µM).
For `O=C(O)CCc1cn2cccnc2n1`, the Kd was 956 µM (Ubiquitin carboxyl-terminal hydrolase 20, ZnF-UBD domain (USP20, Homo sapiens, UniProt Q9Y2K6)).
`CCCCNC(=N)NCCCSC[C@H]1O[C@@H](n2cnc3c(NCCCc4ccccc4)ncnc32)[C@H](O)[C@@H]1O` gave an inhibition of < 10% (CamA DNA adenine methyltransferase (Clostridioides difficile); enzyme activity, inhibitor, MTase-Glo luminescence (SAH); 10 µM, 3 min, pH 7.5, 22 °C, added: SAM 40 µM).
`CC[C@@H]1[C@H](F)C(=O)N[C@@H]1COc1nccc2cc(C(N)=O)c(OC)cc12` gave an inhibition of -1.9% (GSK3A (Homo sapiens, UniProt P49840); ATP-site probe binding, ActivX profiling; THP-1 cell lysate; 0.2 mM, Lys2 site).
`CCN(CC)CCNC(=O)c1c(C)[nH]c(/C=C2\C(=O)Nc3ccc(F)cc32)c1C` gave an inhibition of -1% (MAPK1 (human); kinase activity, inhibitor; 0.3 µM).
`NC(=O)c1cnc2[nH]ccc2c1N[C@@H]1[C@@H]2CC3C[C@H]1C[C@@](O)(C3)C2` gave an inhibition of 31.1% (NLRP3 inflammasome (mouse); mouse BMDM; 10 µM).
The inhibition of `CNc1cc(Oc2cc(C(=O)Nc3cc(N4CCN(C)CC4)cc(C(F)(F)F)c3)ccc2C)ncn1` is reported as -17.6% (Aurora kinases A/B/C (human); kinase probe binding, inhibitor, KiNativ; Huh-7; 1 µM).
With `CC(C)C[C@H](NC(=O)C[C@H](O)[C@H](CC(C)C)NC(=O)[C@H](Cc1c[nH]cn1)NC(=O)CNC(=O)[C@@H](NC(=O)[C@H](C)NC(=O)[C@H](Cc1c[nH]c2ccccc12)NC(=O)[C@H](CCC(N)=O)NC(=O)[C@@H](Cc1ccccc1)NC(=O)COCCOCCNC(=O)CCC(C(=O)O)N1CCN(CC(=O)O)CCN(CC(=O)O)CCN(CC(=O)O)CC1)C(C)C)C(N)=O` (some centres unmarked) [lutetium-177 labelled] the tissue uptake was 0.2 ± 0.1 %ID/g (BALB/c nu/nu mice, spleen; intravenous, 750 pmol, 1 h, added: PA 300 µg).
With `N=C(NCCCSC[C@H]1O[C@@H](n2cnc3c(NCCCc4ccccc4)ncnc32)[C@H](O)[C@@H]1O)NC1CCCCC1` the inhibition was < 10% (CamA DNA adenine methyltransferase (Clostridioides difficile); enzyme activity, inhibitor, MTase-Glo luminescence (SAH); 10 µM, 3 min, pH 7.5, 22 °C, added: SAM 40 µM).
`CC(C)CC(O)C(=O)O` (centres unmarked): “z-scored log2 fold change” -0.575 (binding, equilibrium dialysis LC-MS; 5 µM, thermostabilized A2AR-BRIL construct; baseline: no-protein control, direction not given).
The inhibition of `COc1cc2ncnc(Nc3ccc(F)c(Cl)c3)c2cc1NC(=O)/C=C/CN1CCCCC1` is reported as 67% (NLRP3 inflammasome (mouse); mouse BMDM; 10 µM).
With `Cc1cc(F)cc2c(CCC(=O)N[C@@H]3C(=O)NC[C@H]3O)c(-c3ccc(F)cc3)[nH]c12` the inhibition was -15% (L-type calcium channel, benzothiazepine site; binding; 10 µM).
`Cc1ccc(Nc2nccc(N(C)c3ccc4c(C)n(C)nc4c3)n2)cc1S(N)(=O)=O` has an inhibition of -3% (MAPK1 (human); kinase activity, inhibitor; 10 µM).

Some of these lines once more:
`CCN(CC)CCNC(=O)c1c(C)[nH]c(/C=C2\C(=O)Nc3ccc(F)cc32)c1C` gave an inhibition of -1% (MAPK1 (human); kinase activity, inhibitor; 0.3 µM).
